Measurements gathered from unrelated publications.
Parts stem from different laboratories: compare values within a part only. Changes are numbered by the printed parent chain.

Sample 1
Target: Sal-like protein 4, full length isoform A (SALL4, Homo sapiens, UniProt Q9UJQ4, residues 1-1053)
Sequence of UniProt Q9UJQ4 (whole entry, looked up): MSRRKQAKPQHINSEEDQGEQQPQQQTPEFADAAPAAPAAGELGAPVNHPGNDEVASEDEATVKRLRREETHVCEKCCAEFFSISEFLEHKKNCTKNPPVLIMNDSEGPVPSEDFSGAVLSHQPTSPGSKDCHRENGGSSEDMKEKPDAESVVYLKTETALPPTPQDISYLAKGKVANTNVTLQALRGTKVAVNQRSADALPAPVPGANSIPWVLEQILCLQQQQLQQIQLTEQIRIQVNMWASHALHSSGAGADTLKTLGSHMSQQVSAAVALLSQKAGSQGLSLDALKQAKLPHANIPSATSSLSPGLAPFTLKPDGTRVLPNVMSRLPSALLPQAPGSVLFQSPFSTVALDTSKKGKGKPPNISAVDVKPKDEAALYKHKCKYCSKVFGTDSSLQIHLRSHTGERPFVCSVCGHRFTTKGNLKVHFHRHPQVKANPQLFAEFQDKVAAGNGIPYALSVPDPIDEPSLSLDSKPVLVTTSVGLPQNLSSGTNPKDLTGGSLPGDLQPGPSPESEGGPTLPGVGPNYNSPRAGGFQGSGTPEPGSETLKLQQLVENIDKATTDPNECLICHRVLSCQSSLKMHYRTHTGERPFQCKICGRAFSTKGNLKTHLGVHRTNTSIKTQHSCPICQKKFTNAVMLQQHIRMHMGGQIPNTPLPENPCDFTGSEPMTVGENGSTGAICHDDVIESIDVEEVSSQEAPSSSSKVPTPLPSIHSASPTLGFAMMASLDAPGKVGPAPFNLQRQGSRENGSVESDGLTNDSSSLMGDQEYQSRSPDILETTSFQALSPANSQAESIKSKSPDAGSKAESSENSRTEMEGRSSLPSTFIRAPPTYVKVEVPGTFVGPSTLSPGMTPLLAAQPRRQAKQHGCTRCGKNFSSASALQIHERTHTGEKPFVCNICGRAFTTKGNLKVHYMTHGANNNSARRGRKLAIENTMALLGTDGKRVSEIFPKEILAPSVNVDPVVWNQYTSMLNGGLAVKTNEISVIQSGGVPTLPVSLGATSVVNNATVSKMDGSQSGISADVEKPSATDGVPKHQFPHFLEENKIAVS
Technique: universal PBM
Molecule type: double-stranded DNA, one strand shown
Matrix: in vitro
Tested at: 600 nM
Notes: 8-mer, flanks averaged, mean of replicates
Direction: higher = stronger binding
Sequence	E-score
TATGACAA	0.318
ACGCTCAT	0.0109
GCGAAATA	0.162
GCCTACGC	-0.224
ACAAGATG	0.1
AAGCCATG	-0.0903
TCTATGCA	0.218
CGGAGTGC	-0.229
GCAAAGTA	0.16
ATATCAGC	0.156
CTCCGGTC	-0.337
AGGCCGCG	-0.216
GGCACTTA	-0.11
AAGGGTCC	-0.253
GGCATACC	-0.219
TTGCTAAA	0.123
TTACAGAA	0.219
ACTACGAT	0.126
ATGTCGTG	-0.0928

Sample 2
Target: ABI1, truncated, D143A, DHFR fusion (Arabidopsis thaliana)
Technique: DHFR PCA, deep sequencing
Matrix: yeast
Notes: methotrexate growth selection, single substitutions
Added: (+)-ABA 1.4 µM
Relative to: wild-type fitted maximum
Direction: higher = stronger binding
Starting sequence: PYL1, truncated, DHFR fusion (Arabidopsis thaliana); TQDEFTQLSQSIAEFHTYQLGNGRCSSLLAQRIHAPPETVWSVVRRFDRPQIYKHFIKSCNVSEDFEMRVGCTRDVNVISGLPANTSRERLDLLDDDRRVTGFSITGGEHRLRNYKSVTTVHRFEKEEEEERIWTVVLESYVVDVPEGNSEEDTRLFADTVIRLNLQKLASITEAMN; partner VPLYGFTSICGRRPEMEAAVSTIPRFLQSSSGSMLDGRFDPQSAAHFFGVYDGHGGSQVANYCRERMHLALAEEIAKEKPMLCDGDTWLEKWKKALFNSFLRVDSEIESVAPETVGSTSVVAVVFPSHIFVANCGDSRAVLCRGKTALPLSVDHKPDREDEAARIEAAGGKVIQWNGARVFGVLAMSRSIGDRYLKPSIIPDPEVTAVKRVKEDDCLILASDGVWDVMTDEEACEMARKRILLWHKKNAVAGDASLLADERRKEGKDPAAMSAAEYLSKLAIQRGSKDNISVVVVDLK
Change	relative binding score
E4W	57.3%
E151N	10.8%
T154W	-33.2%
T135R	-1.89%
Q2D	71.8%
S171G	26%
H110C	10.4%
S104P	-4.21%
G21D	52.8%
E131F	42.1%
R123A	74.9%
T73D	2.28%
F103D	1.48%
F124Y	55.3%
H16V	16%
S140G	9.84%

Sample 3
Target: Histone acetyltransferase KAT6A, winged helix 1, GST fusion (KAT6A, Homo sapiens, UniProt Q92794, residues 1-85)
Technique: protein binding microarray
Molecule type: double-stranded DNA, one strand shown
Matrix: in vitro
Tested at: not given
Notes: 8-mer, flanks averaged, mean of 2 arrays, mostly near background
Relative to: not given
Direction: higher = stronger binding
Construct (chain): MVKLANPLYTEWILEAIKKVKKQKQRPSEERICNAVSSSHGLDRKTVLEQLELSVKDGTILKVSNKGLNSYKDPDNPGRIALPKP
Sequence	E-score
ACTACTCC	0.227
GACATACC	0.0633
GCCAGTCC	0.135
CTCGTTGC	-0.076
CGGTATCA	0.109
CATACTAC	-0.0279
ACAGGCCA	-0.165
GACTCTGA	-0.129
AAACCTTG	-0.249
AAGTTTAC	-0.0231
ATGCCCGA	-0.065
CGAGTTGC	-0.0323
AAGGCCCA	-0.258
GATATAGA	-0.0777
CGGCAATC	0.34
CGTCAGGA	-0.0957
AAAAGCCA	-0.0335
CGTATATA	0.0429

Sample 4
Target: CCND3, cyclin fold, Cln2 fusion (human)
Technique: yeast growth competition, sequencing
Matrix: yeast
Notes: weak parent motif
Relative to: not given
Direction: higher = stronger binding
Starting sequence: WEE1 docking peptide (human); HKTFRKLRLFDTP
Change	normalised enrichment score
HKTFRKLRLADTP [F10A]	0.0971
HKTFRKLHLFDTP [R8H]	0.0984
HMTFRKLRLFDTP [K2M]	0.00559
HYTFRKLRLFDTP [K2Y]	0.0476
HKTFRKLPLFDTP [R8P]	0.0678
HKTFRKLRLFDEP [T12E]	0.156
HKTFRKVRLFDTP [L7V]	0.0666
HKEFRKLRLFDTP [T3E]	0.0321
HKTFRKLRLFSTP [D11S]	0.0468
HKTFRKLRLFDTT [P13T]	0.279
HKTFRKLRLKDTP [F10K]	0.0729
HKTFRKGRLFDTP [L7G]	0.208
HKTFTKLRLFDTP [R5T]	0.176
HKTFRKLCLFDTP [R8C]	0.201
HKIFRKLRLFDTP [T3I]	0.153
HKTFRKLDLFDTP [R8D]	0.108

Sample 5
Target: FOXO3, forkhead domain (mouse, UniProt Q9WVH4, residues 31-263)
Sequence of UniProt Q9WVH4 (31-263, looked up): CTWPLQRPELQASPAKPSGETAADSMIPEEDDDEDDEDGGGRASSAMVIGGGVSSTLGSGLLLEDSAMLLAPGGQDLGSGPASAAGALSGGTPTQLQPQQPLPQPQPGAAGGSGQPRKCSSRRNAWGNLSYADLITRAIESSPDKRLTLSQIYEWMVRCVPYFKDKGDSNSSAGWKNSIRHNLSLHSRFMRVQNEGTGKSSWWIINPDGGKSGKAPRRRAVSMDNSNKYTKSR
Technique: protein-binding microarray
Molecule type: hairpin DNA
Matrix: in vitro
Tested at: not given
Notes: whole hairpin DNA, median over replicate spots
Relative to: not given
Direction: higher = stronger binding
Constant ends, left off below: GAGGCCATG … CATGGCCTCACACTC
Sequence	median fluorescence
TAAACACGGCCTCCTGGCCGTGTTTA (5mC at 16 28)	4540 a.u.
TCGACAACGCCTCCTGGCGTTGTCGA (5mC at 11 33)	4450 a.u.
CAAACCGCGCCTCCTGGCGCGGTTTG (5mC at 15 29)	4820 a.u.
TAACCCGCGCCTCCTGGCGCGGGTTA	4690 a.u.
TAAACAATGCCTCCTGGCATTGTTTA	5320 a.u.
CAACCAACGCCTCCTGGCGTTGGTTG (5mC at 13)	4620 a.u.
TGACCAACGCCTCCTGGCGTTGGTCA	4500 a.u.
CAGACAACGCCTCCTGGCGTTGTCTG	4580 a.u.
TATCCAACGCCTCCTGGCGTTGGATA	4090 a.u.
TAAACAAAGCCTCCTGGCTTTGTTTA	5290 a.u.

Sample 6
Target: RING finger protein unkempt homolog, zinc fingers 1-6, GST-SBP tag (UNK, Homo sapiens, UniProt Q9C0B0, residues 30-357)
Sequence of UniProt Q9C0B0 (30-357, looked up): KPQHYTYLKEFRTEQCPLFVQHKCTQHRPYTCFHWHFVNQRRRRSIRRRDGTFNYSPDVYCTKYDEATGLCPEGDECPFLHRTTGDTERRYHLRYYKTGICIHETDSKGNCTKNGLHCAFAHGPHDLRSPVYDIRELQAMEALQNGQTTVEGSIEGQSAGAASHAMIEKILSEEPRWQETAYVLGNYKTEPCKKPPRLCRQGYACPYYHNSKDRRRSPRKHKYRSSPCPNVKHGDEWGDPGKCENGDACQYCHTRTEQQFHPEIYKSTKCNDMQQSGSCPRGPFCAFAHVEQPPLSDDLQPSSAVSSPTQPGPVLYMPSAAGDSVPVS
Technique: RNA Bind-n-Seq
Molecule type: RNA
Matrix: in vitro
Tested at: not given
Notes: RNA with constant flanks, human and mouse sites, ends assumed
Relative to: input RNA pool
Direction: higher = stronger binding
Sequence	bound/input enrichment [ratio]
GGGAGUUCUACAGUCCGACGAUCCACCCCGGCAAAGGACAGGCGGGCCCUGGUCCUCAAGCAGCCCAUAGGCGUGGCUGCAGUCAUCACCCCGUGGAAUUUCCCCAGUGCCAUGAUCACCCGGAAGGUGGGGGCCGCCCUGGCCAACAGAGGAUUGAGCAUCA	0.0798
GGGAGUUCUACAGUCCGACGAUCCUCAUGUAUCUACUAGCAUAUCCACAAAAACCCAUGGUUAAGACAAAAACCAUUGAAUUGAUAGAAUUUGAGAAACUGCCAGCUGGACAGAAUGCAACAGUUGCUGUGAUGAGCUAUAGUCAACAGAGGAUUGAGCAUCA	0.77
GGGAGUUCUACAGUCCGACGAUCUUUGGCAAAAUCUUCCCUAAACCUAAUUUGAACAUCACAGAAGAGAUUACAGAAGACUCUGAUGAAAUACCUUCACAAUUUAUUUCUAGAAAAGAGUUGGAAAAGGGUCGUAUUUCUAGACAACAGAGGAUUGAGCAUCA	0.326
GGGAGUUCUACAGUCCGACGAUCCACCCUCAGCCCAGUAUCAUCCCCCUGGAGCAGGGCUCCCCACUGGCUUCAGCAGGCCCUGGCACCUGCUCACCGGACAGCUUCUGCUGCUCUCCUGAUUCCUGCUCCGGAGCUUCUUCUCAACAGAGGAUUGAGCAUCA	0.203
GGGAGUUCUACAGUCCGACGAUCCCUUUAUUUUAUUUUUCAGUACAAAUUUAUAGACAUACCCAAAUUGUACUGCUGUAGUUUUUCAAACUAAGUGAAAAAUUACUUCUACCUAGAAAUGAGUAUAUUCUUCUACUUUGGAUCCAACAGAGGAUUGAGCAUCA	10.7
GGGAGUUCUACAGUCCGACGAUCGACAGCGGAGAAGAGGUGGAUUUGGUUAAGGAAGCAGAUGUUCCCUCAGCUAUUAGCCUUCUUAGAUUUUUUCUUCAAGAACUUCCUGAACCUGUUAUCCCUGGCAGUUUACAUAUUCACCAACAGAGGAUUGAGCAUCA	2.69
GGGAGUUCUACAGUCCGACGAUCGUUCUUGGAUUUGAGGGGUGCUGAAGUGACACUCCUCUAUGACUUCUUUCUUCCUCCUUUUUAAUCUUACUCUCAUCCCUUUCUCUCUGUCCCAGCCUUCCUGCACCUCUCUGUCUUGUACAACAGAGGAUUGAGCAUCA	0.813
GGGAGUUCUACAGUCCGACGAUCCAGAUUGGAAAGAUGAGAUAUGUCAGUGUUCGGGACUUCAAAGGAAAAAUUCUAAUUGAUAUUAGAGAAUAUUGGAUGGAUUCAGAAGGUGAAAUGAAACCAGGAAGAAAAGGUAUUUCUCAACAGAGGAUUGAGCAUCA	0.206
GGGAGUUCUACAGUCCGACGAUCUCACUUUAAAGCAAUUGCAUAAUAGAUAAAAACCUGAACUUUCAUUGGAUUUUUGUUAAUUUUCCUCAUUUUGAAUUAUGUGCACUACCAUAGCUACAUCAGUUUGAUACAGUAUUGAAACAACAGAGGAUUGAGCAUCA	0.628
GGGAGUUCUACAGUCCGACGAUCCGAGAAGCUGUUUGCAUCGUCCUUUCUGAUGAUACUUGUUCUGAUGAGAAGAUUCGGAUGAAUAGAGUUGUUCGGAAUAACCUUCGUGUACGCCUAGGGGAUGUCAUCAGCAUCCAGCCACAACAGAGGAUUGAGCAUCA	0.141
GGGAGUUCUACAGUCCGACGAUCCUGACACUCUUAUCCCAGCCUGUACACUGUUUGACCAUUUUGUCUGCAGUCAUUGUGUAUAACUUGAGAGAAACAUACUUUAAAUUACCUGGGAGGGUCUGAAUUCUCUAUUUUUGUGAUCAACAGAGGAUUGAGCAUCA	0.448

A few entries again (sample 5):
Sequence	median fluorescence
TAACCCGCGCCTCCTGGCGCGGGTTA	4690 a.u.
TAAACAATGCCTCCTGGCATTGTTTA	5320 a.u.
CAACCAACGCCTCCTGGCGTTGGTTG (5mC at 13)	4620 a.u.
TGACCAACGCCTCCTGGCGTTGGTCA	4500 a.u.
CAGACAACGCCTCCTGGCGTTGTCTG	4580 a.u.
TATCCAACGCCTCCTGGCGTTGGATA	4090 a.u.
